Published values collected from several papers.
Several values in a cell are separate wells, animals, samples, runs or records. Numbers after ± are the reported error.

COc1ccccc1-c1ccncc1C(=O)Nc1nnc(OCc2ccc(Cl)cc2)s1 has a colony survival of 31.3% (DLD-1 BRCA2-/-; 2 µM, mean of 3 replicates; reference: untreated).
The Log10LC50 mean of CC(C)(C)C(=O)OCOP(=O)(OCOC(=O)C(C)(C)C)C1CCCN(O)C1=O (centres unmarked) is reported as -4.06 log M (NCI-60 cell line panel).
CC[C@H](C)[C@H](NC(=O)CNC(=O)[C@H](CC(=O)O)NC(=O)[C@H](CO)NC(=O)[C@@H](N)Cc1c[nH]cn1)C(=O)N[C@@H](Cc1ccccc1)C(=O)N[C@H](C(=O)N[C@@H](CC(=O)O)C(=O)N[C@@H](CO)C(=O)N[C@@H](Cc1ccc(O)cc1)C(=O)N[C@@H](CO)C(=O)N[C@@H](CCCNC(=N)N)C(=O)N[C@@H](Cc1ccc(O)cc1)C(=O)N[C@@H](CCCNC(=N)N)C(=O)N[C@@H](CCCCN)C(=O)N[C@@H](CCC(N)=O)C(=O)N[C@@H](CCSC)C(=O)N[C@@H](C)C(=O)N[C@H](C(=O)N[C@@H](CCCCN)C(=O)N[C@@H](CCCCN)C(=O)N[C@@H](Cc1ccc(O)cc1)C(=O)N[C@@H](CC(C)C)C(=O)N[C@@H](C)C(=O)N[C@@H](C)C(=O)N[C@H](C(=O)N[C@@H](CC(C)C)C(=O)NCC(=O)N[C@@H](CCCCN)C(=O)N[C@@H](CCCNC(=N)N)C(=O)N[C@@H](Cc1ccc(O)cc1)C(=O)N[C@@H](CCCCN)C(=O)N[C@@H](CCC(N)=O)C(=O)N[C@@H](CCCNC(=N)N)C(=O)N[C@H](C(=O)N[C@@H](CCCCN)C(=O)N[C@@H](CC(N)=O)C(=O)N[C@@H](CCCCN)C(N)=O)C(C)C)C(C)C)C(C)C)[C@@H](C)O has an EC50 of about 100 nM (BON; serotonin release, ELISA; 20 min, 37 °C).
O=C1NC2(CC2)COc2ncc(F)cc2[C@H]2COCCN2c2ccn3ncc1c3n2 — result for “aspartate aminotransferase activity”: 141 ± 28.9 U/L (Sprague-Dawley rat, female, serum; oral, 20 mg/kg/day, 4 weeks daily, end of treatment).
For CC(=O)NCSC[C@H](NC(=O)[C@@H]1CCCN1C(=O)[C@H](C)NC(=O)[C@@H](NC(=O)CNC(=O)[C@@H](NC(=O)[C@H](Cc1c[nH]c2ccccc12)NC(=O)[C@H](C)NC(=O)CNC(=O)[C@H](CO)NC(=O)[C@H](C)NC(=O)[C@@H]1CCCN1C(=O)[C@H](Cc1c[nH]c2ccccc12)NC(=O)[C@H](C)NC(=O)[C@H](C)NC(=O)[C@@H](N)Cc1ccc(O)cc1)[C@@H](C)O)[C@@H](C)O)C(=O)N[C@@H](CO)C(=O)N[C@@H](C)C(=O)NCC(=O)N[C@H](C(=O)NCCOCCOCCOCCOCCOCCOCCOCCOCCOCCOCCOCCOCCC(=O)N[C@@H](CS)C(N)=O)[C@@H](C)O, the selectivity ratio was 1.8 ± 0.73 (H441; phage binding; 10 min, 37 °C; reference: control phage).
For NC(=O)N/N=C/c1ccc(OCc2cccc(F)c2)cc1, “catalase activity (OD450)” read 0.038 a.u. (IMR-32; 100 µg/mL, 24 h; higher = more activity).
CC(C)=CCc1c(O)cc2c(c1O)C(=O)CC(c1ccc(O)cc1)O2 (centres unmarked) gave an inhibition of 23.4% (HeLa; cell growth or viability, MTT; 12.5 µM, 48 h).
C=CCN1C(=O)C(CC=C)(C(=O)OCC)Oc2cc(F)ccc21 (centres unmarked) gave an inhibition of 0.25% (HaCaT; cell growth or viability, CCK-8; 6.25 µM, 72 h).
The phospho-MEK1/2 level of CC[C@H](C)[C@H](NC(=O)CNC(=O)[C@H](Cc1ccc(O)cc1)NC(=O)[C@H](CO)NC(=O)[C@H](Cc1ccc(O)cc1)NC(=O)[C@@H](NC(=O)[C@H](CC(=O)O)NC(=O)[C@H](CO)NC(=O)[C@H](CCC(N)=O)NC(=O)[C@H](Cc1ccccc1)NC(=O)[C@H](CO)NC(=O)[C@H](Cc1ccccc1)NC(=O)[C@@H]1CCCN1C(=O)[C@H](CC(N)=O)NC(=O)[C@H](CC(N)=O)NC(=O)[C@H](CC(=O)O)NC(=O)[C@H](CCC(N)=O)NC(=O)[C@@H]1CCCN1C(=O)[C@H](CCCNC(=N)N)NC(=O)[C@H](CCCNC(=N)N)NC(=O)[C@H](CCCNC(=N)N)NC(=O)[C@H](CCC(N)=O)NC(=O)[C@H](CCCNC(=N)N)NC(=O)[C@H](CCCNC(=N)N)NC(=O)[C@H](CCCCN)NC(=O)[C@H](CCCCN)NC(=O)[C@H](CCCNC(=N)N)NC(=O)CN)C(C)C)C(=O)N[C@H](C(=O)N[C@@H](CC(C)C)C(N)=O)C(C)C is reported as 0.388 and 0.275 (MCF7; immunoblot densitometry, item: phospho-MEK1/2 Ser217/221; 50 µM, 48 h, unit not given; reference: 0 µM).
For CC(C)C[C@H](NC(=O)[C@H](CC(=O)O)NC(=O)CNC(=O)[C@@H](N)CCCNC(=N)N)C(=O)N[C@@H](C)C(=O)N[C@H](C(=O)N[C@@H](CC(C)C)C(=O)N[C@@H](CCCNC(=N)N)C(=O)N[C@@H](CCC(N)=O)C(=O)N[C@@H](CC(C)C)C(=O)N[C@@H](C)C(=O)N[C@@H](CCC(N)=O)C(=O)N[C@@H](CCC(=O)O)C(=O)N[C@@H](CC(=O)O)C(=O)NCC(=O)N[C@H](C(=O)N[C@H](C(=O)NCC(=O)N[C@H](C(=O)N[C@@H](CCCNC(=N)N)C(=O)NCCOCCOCCOCCOCCOCCOCCOCCOCCOCCOCCOCCOCCC(=O)N[C@@H](CS)C(N)=O)C(C)C)C(C)C)C(C)C)[C@@H](C)O, the selectivity ratio was 19 ± 4.4 (H441; phage binding; 10 min, 37 °C; reference: control phage).
C#CCN1C(=O)C(CC#C)(C(=O)OCC)Oc2ccccc21 (centres unmarked) gave an inhibition of 0.54% (L02; cell growth or viability, CCK-8; 12.5 µM, 72 h).

Repeated from above:
C#CCN1C(=O)C(CC#C)(C(=O)OCC)Oc2ccccc21 (centres unmarked) gave an inhibition of 0.54% (L02; cell growth or viability, CCK-8; 12.5 µM, 72 h).
